Published values of several laboratories.
Parts stem from different laboratories: compare values within a part only.

Series 1 — method: protein binding microarray; molecule type: double-stranded DNA, one strand shown; medium: in vitro; concentration: not given; relative to: not given; direction: higher = stronger binding
Target: Histone acetyltransferase KAT6A, winged helix 2, GST fusion (KAT6A, Homo sapiens, UniProt Q92794, residues 85-181)
Notes: 8-mer, flanks averaged, mean of 2 arrays, mostly near background
Target sequence (chain): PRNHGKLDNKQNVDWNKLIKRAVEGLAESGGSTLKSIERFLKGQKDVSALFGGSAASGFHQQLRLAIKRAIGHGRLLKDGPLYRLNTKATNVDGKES
| Sequence | E-score |
| --- | --- |
| AAATGAAC | -0.0869 |
| CGTGCGGA | 0.0455 |
| GCCATGGA | -0.0912 |
| GTCAATTA | 0.0122 |
| CGAGATAG | -0.119 |
| TCTTTTAA | 0.126 |
| ACCTTCTG | 0.105 |
| GATAAGAA | 0.144 |
| GATGTGCA | -0.129 |
| AGTCAAGA | -0.0618 |
| GCTCCCCC | 0.00992 |
| ATCGCCAC | -0.0824 |
| CAAAGCCC | 0.0556 |
| CTTGGTAC | -0.0317 |
| ACCTGCTG | 0.102 |
| GAGAGTCC | -0.22 |
| ATCCGACA | 0.0594 |
| ACCAGATA | 0.0654 |
| GGCAGATA | 0.00498 |
| GCGAAGCA | 0.229 |
| TAAAACTA | 0.0559 |
| ATCGCGTG | 0.0102 |
| ATCAAAAG | 0.0161 |
| AGGGAGGA | 0.0359 |
| CAGCTACC | -0.0754 |

Series 2 — method: protein-binding microarray; molecule type: double-stranded DNA, one strand shown; medium: in vitro; concentration: 2200 nM top; notes: 60-bp whole probe; with: salmon DNA 0.4 mg/ml; relative to: random background probes; direction: higher = stronger binding; shared flanks, not repeated: GCCTAGCAC … GTCTTGATTCGCTTGACGCTGCTG
Target: Interferon regulatory factor 7, full length, phosphomimetic (IRF7, Homo sapiens, UniProt Q92985, residues 1-503, S471D/S472D/S475D/S476D/S477D/S483D/S484D/S487D)
Residues (chain): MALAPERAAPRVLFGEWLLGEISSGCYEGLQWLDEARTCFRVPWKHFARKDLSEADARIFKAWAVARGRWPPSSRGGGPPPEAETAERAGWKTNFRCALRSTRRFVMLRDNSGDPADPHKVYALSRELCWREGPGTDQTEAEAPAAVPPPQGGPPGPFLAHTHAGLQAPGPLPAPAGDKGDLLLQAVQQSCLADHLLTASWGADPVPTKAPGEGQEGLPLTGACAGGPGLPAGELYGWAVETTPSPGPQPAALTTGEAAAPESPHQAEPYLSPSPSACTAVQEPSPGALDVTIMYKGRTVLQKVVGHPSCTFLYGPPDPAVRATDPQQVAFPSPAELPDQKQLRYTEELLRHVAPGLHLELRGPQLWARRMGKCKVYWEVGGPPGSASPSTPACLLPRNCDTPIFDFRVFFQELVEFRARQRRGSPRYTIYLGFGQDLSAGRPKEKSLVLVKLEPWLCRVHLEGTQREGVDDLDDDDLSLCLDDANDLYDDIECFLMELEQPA
| Sequence | fitted relative affinity [z-score] |
| --- | --- |
| TCATATATATATTGTTAGACTGTGCTA | 0.584 |
| GACGGTATCCTTTTTCTGACGTGCTAG | 1.1 |
| GCTGGTCTCTAACTCAAGATGTGCTAG | 0.255 |
| AATTAAATGATATATATCCATGTGCTA | -0.406 |
| TATCTTATCCTATCAGTTTAGTGCTAG | 1.43 |
| GACGGTATGGGGTTTCGGGACGTGCTA | 1.06 |
| AACCGCCTCTCCCTTAGACGGTGCTAG | 1.03 |
| GACGGACTGGGTTTCGGGAAGTGCTAG | 0.26 |
| CAAACACTGGTTTTTACTTTGTGCTAG | 1.05 |
| GAGGGTATCGACACTGGGGACGTGCTA | -0.683 |
| GACCGACTGGACTTTCGGGACGTGCTA | 2.4 |
| TTAGGTATCGACCATCGGTTAGTGCTA | 0.0597 |
| GACGGTCTCGGTTTCGGAACGTGCTAG | 4.21 |
| TCATACCTGTATATCTTACTGTGCTAG | 1.28 |
| GGTCTTTTCGCTTTCTTTACGTGCTAG | 7.2 |
| GACGGTCTCCTTTTTCTGACGTGCTAG | 1.25 |

Series 3 — method: RNA Bind-n-Seq; molecule type: RNA; medium: in vitro; concentration: 365 nM; relative to: no-protein control; direction: higher = stronger binding
Target: RNA binding protein fox-1 homolog 2, RRM domain, GST-SBP tag (RBFOX2, Homo sapiens, UniProt O43251-10, residues 100-194)
Notes: natural RNA segment, single round, ends assumed
Target sequence (chain): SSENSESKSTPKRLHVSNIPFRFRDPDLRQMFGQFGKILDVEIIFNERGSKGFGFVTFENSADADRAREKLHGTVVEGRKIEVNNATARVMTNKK
| Sequence | RBNS enrichment (R) |
| --- | --- |
| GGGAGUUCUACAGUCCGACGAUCCCUUUGCUGAAAAGUGAGCUCAGAUCCAGCACCAUGUUCCUCCUGACCCAUCCUGUCUAUCUUCUCAGUUGAGUUUUUAAUCUCACUUUGGGUUUCCUUGUGAAGUUGGAUGGAAUUCUCGGGUGCCAA | 0.2 |
| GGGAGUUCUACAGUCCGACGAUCUCUUACUGCUAAUUAAAACCUAAGCAAGAAGUCUCAUGUAAUUCUGAUAGCAGAAUUGCAUUGUGUGAACUGUGUAACUUUAGUAAUGUAAAUCAAGGAACAUCAGUUAAUGGAAUUCUCGGGUGCCAA | 0.502 |
| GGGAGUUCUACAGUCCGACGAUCUCGAACGAAUGAGUAGAGUUCAGAGGUCUUCGUGUUCACAUUUAAAACUAGAUAAAUGACCUCAUUUUCUUGAGCUUGAAUUCAUUUUUAAUUUUAAUUUUAUUUUAUACUGGAAUUCUCGGGUGCCAA | 0.894 |
| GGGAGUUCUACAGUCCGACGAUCUGUGCCUGCUCUCUGCUCCUGUUCUUUCCCUCCCAUACCUGGCUGCUGUGAGGACACUCACCUUGUUCUGGCUUCAGCUGCUAGCCUACCCACAUCUCAGCGCUUUCCCCUGGAAUUCUCGGGUGCCAA | 1.39 |
| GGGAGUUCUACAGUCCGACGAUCUUACUAGAUCUGGAGGCAACCACAGGACACUAAACUUCUCCCAGCCUCUUCAGGAAAGAAACCUCAUUCUUUGGCAAGCAGGAGGUGACACUAGAUGGCUGUGAAUGUGAUGGAAUUCUCGGGUGCCAA | 0.518 |
| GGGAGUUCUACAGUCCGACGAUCCCAGCCAUAGAAGCAGAGCUGAACAGUAUCACAUAGCGAUUCAUGGUCACUCGCAACCUGAGUUCACCACAGCGGGAAUAGCUGUGAGAAACACAAGCAAAACAACAAAAUGGAAUUCUCGGGUGCCAA | 0.244 |
| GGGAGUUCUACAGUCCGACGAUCGUAGCAAGGGAGCCCUACUGCAUAGCCAGUAACUCGCGUCUGUACCAUGGAAAGGGCGGAACGAUUCUCCAGGACAGCCAGCUCUUUCGUUGAAGAUCUAUCUAUGCAUUUGGAAUUCUCGGGUGCCAA | 0.618 |
| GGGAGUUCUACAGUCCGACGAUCGGCACUCGCAGGAUCCUGCAGUGCUGGGCCCAGAGCCCUUGGACAGGCCUCAGGAGUGGUCAGGACCACCAAGCCCCUCCUCUCCCCCUCCACACCUCUAGACCUGGGGCUGGAAUUCUCGGGUGCCAA | 0.207 |
| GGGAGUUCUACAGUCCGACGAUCUUAAAGUCCUUCAGUAUUUAUGGCCACCCCCACUCCAUGUGAGUCCACUUGGCUCUGUCCUCCCCAUUUUAGCCACCUCUGUAUUUAUGUUGCUUAUUCGUCUGUUUUUAUGGAAUUCUCGGGUGCCAA | 0.544 |
| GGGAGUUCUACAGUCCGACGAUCCCAUCUGUCCCACACGCUCCCUGGGGCUCUUAGUUCAGCUGCUGGCACUCGCAGGAUCCUGCAGUGCUGGGCCCAGAGCCCUUGGACAGGCCUCAGGAGUGGUCAGGACCUGGAAUUCUCGGGUGCCAA | 0.281 |
| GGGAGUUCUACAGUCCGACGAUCUGCAAUACCUGCUUAUAUCAUGUAGAAAAGCUUAGCAAUUAUUAAUUUUUCUUUUAUUUUUUUUUAUUUGACCAAAGUCGGUGCUGCACUUGACGCAGUGUGUUUUAGGUUGGAAUUCUCGGGUGCCAA | 0.889 |
| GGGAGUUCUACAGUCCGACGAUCGUGCAUUCAUCUUUAGGUGACUGAAUGUUAAGAAAUCUGUGUGCAUAGUUACUAAGUUUUUAUGAACUGUUGUGUCCUGUUAAUGCAUAUUGCCCUGUGACUCCAGUAUAUGGAAUUCUCGGGUGCCAA | 0.369 |

Series 4 — method: RNA Bind-n-Seq; molecule type: RNA; medium: in vitro; concentration: 200 nM; notes: whole 134-nt RNA, ends assumed; with: 150 mM LiCl; relative to: input library; direction: higher = stronger binding; library: 7-deaza-guanosine replaces G
Target: Ras GTPase-activating protein-binding protein 1, full length (G3BP1, Homo sapiens, UniProt Q13283)
Chain of UniProt Q13283 (whole entry, looked up): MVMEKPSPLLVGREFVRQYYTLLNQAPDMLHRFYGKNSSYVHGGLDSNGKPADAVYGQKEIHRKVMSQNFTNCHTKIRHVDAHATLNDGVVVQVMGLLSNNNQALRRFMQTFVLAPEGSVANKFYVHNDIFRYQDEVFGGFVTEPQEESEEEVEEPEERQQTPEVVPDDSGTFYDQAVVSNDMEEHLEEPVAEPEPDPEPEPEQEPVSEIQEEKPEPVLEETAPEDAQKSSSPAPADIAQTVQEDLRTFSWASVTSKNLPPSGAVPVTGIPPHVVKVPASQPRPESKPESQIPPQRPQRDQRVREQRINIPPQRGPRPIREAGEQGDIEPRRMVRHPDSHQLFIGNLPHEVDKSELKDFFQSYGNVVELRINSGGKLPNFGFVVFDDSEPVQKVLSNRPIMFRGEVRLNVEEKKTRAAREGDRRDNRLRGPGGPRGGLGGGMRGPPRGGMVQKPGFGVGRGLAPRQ
| Sequence | log2 enrichment |
| --- | --- |
| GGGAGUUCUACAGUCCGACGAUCCAAGUCCUGUGCUACACAUCGUAUGUACCGAAUCGGGCCCGGGGCCCGGGGCCCGGAAAGUAUUAUGUUACGCCGUUCGGAUCUGCACUUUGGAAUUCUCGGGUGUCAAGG | -1.34 |
| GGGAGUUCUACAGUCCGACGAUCCAGCAGUGAGUCUCUUCAGAAAACCCUUUUCUACAGUUAGGGUUGAGUUACUUCCUAUCAAGCCAGUACGUGCUAACAGGCUCAAUAUUCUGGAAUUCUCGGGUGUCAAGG | -0.633 |
| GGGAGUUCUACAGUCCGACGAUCCUGUGCUACACAUCGUAUGUACCGAAUCGGGGUUUGGGGAAAAAAAGGGGAAAAAAAGGGGAAAGUAUUAUGUUACGCCGUUCGGAUCUGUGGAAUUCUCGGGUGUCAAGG | 0.617 |
| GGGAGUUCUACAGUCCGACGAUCCCUCAAGUCCUGUGCUACACAUCGUAUGUACCGAAUCGGGAGGGUGGGUGGGAAAGUAUUAUGUUACGCCGUUCGGAUCUGCACUUCCAGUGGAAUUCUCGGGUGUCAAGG | -0.486 |
| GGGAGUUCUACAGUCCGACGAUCUGAAGACUAUGAGACUGCUCUAUCAGGAAAGGAAGCCCUUUCGGCUGCGCUGCGCUCACAAAACCUCACCAAGAGUACAGAGAACCACAGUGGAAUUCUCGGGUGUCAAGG | -0.0979 |
| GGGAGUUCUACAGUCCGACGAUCUUUUCUGUUUGAAACAGUUUUAUACUUUCUGAUAUAGUACUUGAAAUUCUUACCAGAAAAUUACUUUGGAGUUUUGAAGCCUUUAUUAAUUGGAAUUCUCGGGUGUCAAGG | 0.0118 |
| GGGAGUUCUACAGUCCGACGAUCUGGGCGGCUGCGAGAUGAGAACGGACGACCCUACUCGCCCAGUCAGUAUGCGCUCCAGUACGCCGGGGACGGCAGUGUCCUCCUCAUCCCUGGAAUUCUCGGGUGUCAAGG | -0.762 |
| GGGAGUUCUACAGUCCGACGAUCGUCCUGUGCUACACAUCGUAUGUACCGAAUCGGGGCCCCCGGGCCCCCGGGGCCCCCGGAAAGUAUUAUGUUACGCCGUUCGGAUCUGCAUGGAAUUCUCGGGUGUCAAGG | -1.22 |
| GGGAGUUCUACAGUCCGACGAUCACCAUGCAGGUGGGCAUCUUUGGGAAGUGGGGCAAGGGGGGGAUAGGGAGGGGGGUAACACUUUGGGAACAGGUGGUCCCAGAAAGUUUCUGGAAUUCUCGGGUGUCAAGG | -0.00707 |
| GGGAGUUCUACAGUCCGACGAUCGCAGGAAGUAAAAACAAAUGGAAAUGCUUCGGAUAGUGGCAGGGGUGGGGGUUGCUAAGGAAAGGGUGGGAUGGGAGUGGAUAAAGAGUUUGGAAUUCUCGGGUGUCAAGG | -0.0535 |
| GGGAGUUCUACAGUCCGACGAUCCAAGUCCUGUGCUACACAUCGUAUGUACCGAAUCGGGUUUGGGUGGGUUUUUGGGAAAGUAUUAUGUUACGCCGUUCGGAUCUGCACUUCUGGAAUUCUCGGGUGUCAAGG | 0.763 |
